Published values from different studies.
Compare with care: the assays were run in different laboratories. ± gives the spread as reported.
CHRM1: Muscarinic acetylcholine receptor M1 (CHRM1, Homo sapiens, UniProt P11229)
Sequence of UniProt P11229 (whole entry, looked up): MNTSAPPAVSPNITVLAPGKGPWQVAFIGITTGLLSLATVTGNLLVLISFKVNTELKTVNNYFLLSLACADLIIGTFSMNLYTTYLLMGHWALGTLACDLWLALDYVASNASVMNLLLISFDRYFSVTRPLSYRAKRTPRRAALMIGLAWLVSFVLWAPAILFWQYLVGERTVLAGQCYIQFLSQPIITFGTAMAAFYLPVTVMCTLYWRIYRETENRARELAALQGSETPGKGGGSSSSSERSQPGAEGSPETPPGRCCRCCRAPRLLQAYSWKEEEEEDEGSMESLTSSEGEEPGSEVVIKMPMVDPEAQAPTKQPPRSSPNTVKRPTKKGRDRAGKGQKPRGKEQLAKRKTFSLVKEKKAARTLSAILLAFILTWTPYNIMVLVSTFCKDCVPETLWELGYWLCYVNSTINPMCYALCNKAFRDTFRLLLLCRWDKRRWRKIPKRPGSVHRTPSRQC
Drd2: D(2) dopamine receptor (Drd2, Rattus norvegicus, UniProt P61169)
Sequence of UniProt P61169 (whole entry, looked up): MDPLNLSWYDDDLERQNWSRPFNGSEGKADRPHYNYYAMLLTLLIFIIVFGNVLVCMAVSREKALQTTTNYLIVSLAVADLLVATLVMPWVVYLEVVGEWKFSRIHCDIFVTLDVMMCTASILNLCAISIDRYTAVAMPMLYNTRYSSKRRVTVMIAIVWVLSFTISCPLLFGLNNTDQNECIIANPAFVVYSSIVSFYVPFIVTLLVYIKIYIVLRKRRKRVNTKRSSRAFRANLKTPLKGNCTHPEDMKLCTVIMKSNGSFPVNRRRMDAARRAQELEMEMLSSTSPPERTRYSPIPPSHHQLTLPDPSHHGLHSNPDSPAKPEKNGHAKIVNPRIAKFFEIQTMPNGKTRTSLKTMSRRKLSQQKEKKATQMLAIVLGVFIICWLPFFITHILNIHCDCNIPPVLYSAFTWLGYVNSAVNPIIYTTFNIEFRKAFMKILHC
Sequence of UniProt P42574 (whole entry, looked up): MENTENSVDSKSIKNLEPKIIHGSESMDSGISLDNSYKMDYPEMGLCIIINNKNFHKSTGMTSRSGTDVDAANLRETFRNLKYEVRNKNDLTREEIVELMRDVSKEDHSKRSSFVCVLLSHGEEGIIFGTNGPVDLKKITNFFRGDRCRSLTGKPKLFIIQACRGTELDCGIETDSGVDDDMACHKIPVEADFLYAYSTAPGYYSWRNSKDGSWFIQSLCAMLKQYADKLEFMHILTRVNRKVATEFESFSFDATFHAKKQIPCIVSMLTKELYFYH
Sequence of UniProt Q9Y2K7 (whole entry, looked up): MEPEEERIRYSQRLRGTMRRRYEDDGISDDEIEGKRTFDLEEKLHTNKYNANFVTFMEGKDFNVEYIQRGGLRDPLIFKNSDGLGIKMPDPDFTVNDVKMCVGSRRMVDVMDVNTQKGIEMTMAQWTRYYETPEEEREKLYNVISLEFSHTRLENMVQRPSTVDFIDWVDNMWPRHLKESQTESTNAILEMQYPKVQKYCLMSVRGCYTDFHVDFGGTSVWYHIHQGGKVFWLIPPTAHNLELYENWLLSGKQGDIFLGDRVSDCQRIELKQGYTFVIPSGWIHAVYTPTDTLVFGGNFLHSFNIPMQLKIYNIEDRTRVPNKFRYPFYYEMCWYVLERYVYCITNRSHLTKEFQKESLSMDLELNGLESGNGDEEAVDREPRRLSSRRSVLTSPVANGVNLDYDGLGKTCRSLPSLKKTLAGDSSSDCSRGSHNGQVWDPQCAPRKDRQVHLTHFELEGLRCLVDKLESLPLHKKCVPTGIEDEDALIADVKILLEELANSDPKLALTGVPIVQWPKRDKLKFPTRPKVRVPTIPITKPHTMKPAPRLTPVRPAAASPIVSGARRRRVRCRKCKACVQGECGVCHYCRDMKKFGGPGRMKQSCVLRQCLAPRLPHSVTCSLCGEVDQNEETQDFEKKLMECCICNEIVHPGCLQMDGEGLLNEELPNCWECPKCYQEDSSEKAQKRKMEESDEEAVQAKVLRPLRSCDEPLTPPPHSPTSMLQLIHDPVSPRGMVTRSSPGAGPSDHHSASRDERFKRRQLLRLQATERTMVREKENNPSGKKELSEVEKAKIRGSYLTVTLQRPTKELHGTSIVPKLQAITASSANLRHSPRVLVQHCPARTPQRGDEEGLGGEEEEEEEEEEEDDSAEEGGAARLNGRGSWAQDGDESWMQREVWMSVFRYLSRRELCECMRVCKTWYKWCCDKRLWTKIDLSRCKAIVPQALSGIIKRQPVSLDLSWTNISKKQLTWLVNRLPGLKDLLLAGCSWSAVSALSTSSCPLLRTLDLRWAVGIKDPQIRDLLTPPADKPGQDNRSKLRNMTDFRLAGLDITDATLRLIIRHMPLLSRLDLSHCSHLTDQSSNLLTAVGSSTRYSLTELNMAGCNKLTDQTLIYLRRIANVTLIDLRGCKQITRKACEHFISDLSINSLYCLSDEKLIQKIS
Sequence of UniProt Q9R0C9 (whole entry, looked up): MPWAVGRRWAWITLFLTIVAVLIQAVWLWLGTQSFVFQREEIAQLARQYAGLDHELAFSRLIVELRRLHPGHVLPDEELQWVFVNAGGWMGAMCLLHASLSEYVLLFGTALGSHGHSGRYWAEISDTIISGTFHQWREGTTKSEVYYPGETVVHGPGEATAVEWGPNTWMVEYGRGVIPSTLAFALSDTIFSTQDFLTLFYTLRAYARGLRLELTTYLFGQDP
Sequence of UniProt P20309 (whole entry, looked up): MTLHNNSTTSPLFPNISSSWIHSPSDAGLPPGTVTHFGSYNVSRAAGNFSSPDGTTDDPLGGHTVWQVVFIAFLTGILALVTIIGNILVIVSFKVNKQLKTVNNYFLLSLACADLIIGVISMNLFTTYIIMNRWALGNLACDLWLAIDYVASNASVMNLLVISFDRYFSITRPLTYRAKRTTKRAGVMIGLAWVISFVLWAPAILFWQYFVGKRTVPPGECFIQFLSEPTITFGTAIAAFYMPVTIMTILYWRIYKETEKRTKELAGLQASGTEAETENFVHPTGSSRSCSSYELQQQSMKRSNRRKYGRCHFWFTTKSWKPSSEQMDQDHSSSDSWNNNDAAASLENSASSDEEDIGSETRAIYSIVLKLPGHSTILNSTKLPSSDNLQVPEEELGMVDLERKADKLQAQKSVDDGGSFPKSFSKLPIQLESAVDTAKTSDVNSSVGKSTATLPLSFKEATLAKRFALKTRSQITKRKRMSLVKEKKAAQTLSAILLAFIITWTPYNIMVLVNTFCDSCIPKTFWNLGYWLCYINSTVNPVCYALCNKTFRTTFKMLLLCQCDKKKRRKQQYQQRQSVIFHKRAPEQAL
Sequence of UniProt P27338 (whole entry, looked up): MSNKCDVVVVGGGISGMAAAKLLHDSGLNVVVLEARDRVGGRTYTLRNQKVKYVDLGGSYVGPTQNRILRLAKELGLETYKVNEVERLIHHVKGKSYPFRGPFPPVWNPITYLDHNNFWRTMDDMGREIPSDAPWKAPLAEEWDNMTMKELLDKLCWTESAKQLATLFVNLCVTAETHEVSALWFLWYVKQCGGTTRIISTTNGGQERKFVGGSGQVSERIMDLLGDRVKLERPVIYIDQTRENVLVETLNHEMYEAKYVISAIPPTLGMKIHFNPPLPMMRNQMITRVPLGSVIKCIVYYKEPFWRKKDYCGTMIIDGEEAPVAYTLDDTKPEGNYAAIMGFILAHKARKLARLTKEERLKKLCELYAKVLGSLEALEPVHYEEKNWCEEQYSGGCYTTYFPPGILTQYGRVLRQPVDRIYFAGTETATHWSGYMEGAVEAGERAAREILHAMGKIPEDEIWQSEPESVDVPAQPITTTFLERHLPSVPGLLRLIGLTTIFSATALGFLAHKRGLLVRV

| SMILES | target | effect on | action | technique | pH | Ki [nM] |
| --- | --- | --- | --- | --- | --- | --- |
| CC(=O)N[C@H](C(=O)N[C@@H](CCCNC(=N)N)C(=O)N[C@H](C=O)CC(=O)O)[C@@H](C)O | Caspase-3 (CASP3, Homo sapiens, UniProt P42574) | enzyme activity | inhibitor | fluorescence | pH 7 | > 100000 |
| CN(CCON=Cc1ccc(C(F)(F)F)cc1)Cc1ccccc1 | Sigma non-opioid intracellular receptor 1 (Sigmar1, Rattus norvegicus, UniProt Q9R0C9) | binding | – | – | – | 27.4 ± 0.86 |
| CCC(=O)NCc1cc(C(=O)NCCN2CCC(OC(=O)C(c3ccccc3)c3ccccc3)CC2)cc(C(=O)NCCN2CCN(CCCCC3CCN(CC(=O)N4c5ccccc5NC(=O)c5ccccc54)CC3)CC2)c1 | CHRM1 | ligand displacement | – | radioligand | – | 4.17 |
| COc1ccc(CCCN[C@H]2CCC[C@@H]2CN[C@H]2CCC[C@@H]2CNCCCCN[C@@H]2CCC[C@H]2CN)cc1 | Amine oxidase [flavin-containing] B (MAOB, Homo sapiens, UniProt P27338) | enzyme activity | inhibitor | – | – | > 500000 |
| CCCCCC[n+]1ccccc1C=Cc1ccc(N(C)C)cc1 | Lysine-specific demethylase 2A (KDM2A, Homo sapiens, UniProt Q9Y2K7) | ligand displacement | – | FP | – | 280 |
| CN1CCC=C(c2nsnc2OCCCCCNC(=O)CCCNC(=O)c2cc(CN)cc(C(=O)NCCN3CCN(CCCCC4CCN(CC(=O)N5c6ccccc6NC(=O)c6ccccc65)CC4)CC3)c2)C1 | Muscarinic acetylcholine receptor M3 (CHRM3, Homo sapiens, UniProt P20309) | ligand displacement | – | radioligand | – | 17.4 |
| CN1CCN(Cc2ccc(OCCCN3CCN(c4cccc5sccc45)CC3)cc2)CC1 | Drd2 | cell-free assay | – | radioligand | – | 86.2 |
| NCc1cc(C(=O)NCCN2CCN(CCCCC3CCN(CC(=O)N4c5ccccc5NC(=O)c5ccccc54)CC3)CC2)cc(C(=O)NCCN2CCN(CCOC(=O)C3c4ccccc4Oc4ccccc43)CC2)c1 | CHRM1 | ligand displacement | – | radioligand | – | 3.8 |
| c1cc(N2CCN(CCCOc3ccc(CN4CCCCC4)cc3)CC2)c2ccsc2c1 | Drd2 | cell-free assay | – | radioligand | – | 138 |

Excerpt of the above:
| SMILES | target | effect on | action | technique | pH | Ki [nM] |
| --- | --- | --- | --- | --- | --- | --- |
| CN1CCC=C(c2nsnc2OCCCCCNC(=O)CCCNC(=O)c2cc(CN)cc(C(=O)NCCN3CCN(CCCCC4CCN(CC(=O)N5c6ccccc6NC(=O)c6ccccc65)CC4)CC3)c2)C1 | Muscarinic acetylcholine receptor M3 (CHRM3, Homo sapiens, UniProt P20309) | ligand displacement | – | radioligand | – | 17.4 |
